Measured values from different studies.
A part holds a random share of what one study measured.

Set 1
Target: Sal-like protein 4, full length isoform B (SALL4, Homo sapiens, UniProt Q9UJQ4-2, residues 1-616)
Method: universal PBM
Molecule type: double-stranded DNA, one strand shown
Sample: in vitro
Tested at: not given
Setting: 8-mer, flanks averaged, mean of replicates
Direction: higher = stronger binding
Target sequence (chain): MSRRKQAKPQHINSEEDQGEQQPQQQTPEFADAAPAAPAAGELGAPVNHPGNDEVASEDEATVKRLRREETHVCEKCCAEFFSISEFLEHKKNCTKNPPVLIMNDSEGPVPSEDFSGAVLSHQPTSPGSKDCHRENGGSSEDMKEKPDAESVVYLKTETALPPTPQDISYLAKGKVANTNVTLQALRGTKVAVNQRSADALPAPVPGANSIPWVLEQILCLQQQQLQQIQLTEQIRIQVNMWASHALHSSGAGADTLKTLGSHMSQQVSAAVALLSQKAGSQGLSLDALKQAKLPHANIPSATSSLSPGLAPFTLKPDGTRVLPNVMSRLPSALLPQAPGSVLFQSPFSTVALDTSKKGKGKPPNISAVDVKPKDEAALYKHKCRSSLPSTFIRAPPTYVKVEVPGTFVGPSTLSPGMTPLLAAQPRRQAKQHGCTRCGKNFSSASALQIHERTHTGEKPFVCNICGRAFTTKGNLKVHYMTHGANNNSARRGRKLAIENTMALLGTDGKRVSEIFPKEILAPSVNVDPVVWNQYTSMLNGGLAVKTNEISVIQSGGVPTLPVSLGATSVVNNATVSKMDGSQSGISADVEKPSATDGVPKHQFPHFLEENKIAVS
| Sequence | E-score |
| --- | --- |
| GTATAAAA | 0.345 |
| CTGGCACA | -0.11 |
| AAATCGTG | 0.197 |
| TACGTCGA | -0.00833 |

Set 2
Target: Hepatocyte nuclear factor 3-beta, forkhead domain (FOXA2, Homo sapiens, UniProt Q9Y261, residues 142-269)
Method: protein-binding microarray
Molecule type: double-stranded DNA, one strand shown
Sample: in vitro
Tested at: not given
Setting: k-mer, scored over probes, only values ≥0.25
Direction: higher = stronger binding
Residues (chain): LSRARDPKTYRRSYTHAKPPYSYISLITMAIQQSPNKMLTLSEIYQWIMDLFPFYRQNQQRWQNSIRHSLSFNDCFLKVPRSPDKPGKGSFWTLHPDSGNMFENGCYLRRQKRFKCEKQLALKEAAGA
| Sequence | E-score |
| --- | --- |
| ATTTAATC | 0.294 |
| ATACAGTC | 0.285 |
| ACACAATA | 0.363 |

Set 3
Target: Histone acetyltransferase KAT6A, winged helix 2, GST fusion (KAT6A, Homo sapiens, UniProt Q92794, residues 85-181)
Method: protein binding microarray
Molecule type: double-stranded DNA, one strand shown
Sample: in vitro
Tested at: not given
Setting: 8-mer, flanks averaged, mean of 2 arrays, mostly near background
Reference: not given
Direction: higher = stronger binding
Construct (chain): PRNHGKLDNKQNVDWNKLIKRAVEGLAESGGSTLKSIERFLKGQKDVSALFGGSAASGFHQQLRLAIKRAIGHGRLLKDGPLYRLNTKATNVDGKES
| Sequence | E-score |
| --- | --- |
| CGACTCGC | 0.0878 |
| AGACGTAT | -0.271 |
| GCGCGACC | 0.2 |
| ACAGAGCG | -0.0319 |
| CGGCCAAG | 0.215 |

Single results of other studies
| Substance | target | assay | test system | setting | how to read | measurement | result |
| --- | --- | --- | --- | --- | --- | --- | --- |
| PhoQ, residues 284 288 289 292 302 303 GNNTDL | PhoP, residues 12 14 15 18 19 LHTVM (Escherichia coli, UniProt P23836) | Sort-seq, refers to: YFP reporter | E. coli | PhoQ-PhoP variant library, added: 10 µM Mg2+ | reference: high Mg2+ state, higher = stronger signaling | fold induction | 1.17 |

For quick reference, copied from above (set 2):
| Sequence | E-score |
| --- | --- |
| ATACAGTC | 0.285 |
